Measured values collected from several papers.
Each line is one published result; not all experiments were run side by side. Values joined by “and” are separate records of one study, mostly repeats; a detail may differ. ± marks the error that the study gave.

Structure (SMILES) = CC#CC(=O)N1CCC[C@H]1c1nc(-c2ccc(C(=O)Nc3ccccn3)cc2)c2c(N)nccn12; tested on = human platelets, healthy donors; assay = calcium mobilisation, inhibitor, Fura-2 fluorescence; setting = together with: CRP 10 µg/mL; measurement = IC50; value = 5320 nM
Structure (SMILES) = C[C@H]1Oc2cc(cnc2N)-c2c(nn(C)c2C#N)CN(C)C(=O)c2ccc(F)cc21; tested on = Ba/F3 EML4-ALK variant 1; assay = cell viability; measurement = IC50; value = 3.5 nM
Structure (SMILES) = CC(=O)O[C@H]1C(=O)[C@@]2(C)[C@H]([C@H](OC(=O)c3ccccc3)[C@]3(O)C[C@H](OC(=O)[C@H](O)[C@@H](NC(=O)c4ccccc4)c4ccccc4)C(C)=C1C3(C)C)[C@]1(OC(C)=O)CO[C@@H]1C[C@@H]2O; tested on = CHP-212 parental; assay = cell viability, SRB; measurement = IC50; value = 36.1 nM and 26 nM and 43.1 nM
Structure (SMILES) = COc1cc(N2CCC(N3CCN(C)CC3)CC2)ccc1Nc1ncc(Cl)c(Nc2ccccc2P(C)(C)=O)n1; tested on = NCI-H2228 (EML4-ALK variant 3); assay = cell viability; measurement = IC50; value = 12.5 nM
Structure (SMILES) = N#Cc1ccc(C[C@@H](NC(=O)c2cc3ccccc3[nH]2)C(=O)N2CCc3ccccc32)cc1; tested on = human neutrophils; assay = calcium mobilization, desensitization; setting = together with: standard agonist; measurement = IC50; value = > 50000 nM
Structure (SMILES) = COc1cc2c(cc1OC)-c1cc3ccc(OC)c(OCCN)c3c[n+]1CC2; tested on = Lewis lung carcinoma; assay = cell viability, MTT; setting = 72 h; measurement = IC50; value = > 80000 nM
Structure (SMILES) = NC(=O)NOCCCCCCCCCCCCCCCCCCCC[P+](c1ccccc1)(c1ccccc1)c1ccccc1; tested on = mouse myeloid-derived suppressor cells; assay = suppressive neutrophil differentiation, flow cytometry; measurement = IC50; value = > 1000 nM
Structure (SMILES) = C[C@@H]1CN(C(=O)c2ccc(NC(=O)c3cc(O[C@H](C)c4c(Cl)ccc(F)c4Cl)c(N)nn3)cc2)C[C@H](C)N1; tested on = NCI-H2228 (EML4-ALK variant 3); assay = cell viability; measurement = IC50; value = 8.77 nM
Structure (SMILES) = CC(=O)c1n[nH]c2ccc(-c3cnc4ccc(N(C)C5CCOCC5)nn34)cc12; tested on = primary neutrophils; assay = IL6 production; setting = together with: LPS; measurement = IC50; value = 570 ± 80 nM
Structure (SMILES) = CCC(=O)N1CCC(COCC(=O)N2CCN(c3nc(-c4cnc(N)nc4C(F)F)nc(N4CCOC[C@@H]4C)n3)CC2)CC1; tested on = MDA-MB-453; assay = western blot, item: phospho-S6 Ser235/Ser236; setting = 2 h; measurement = IC50; value = 607 nM
Structure (SMILES) = Cc1cc(Nc2ncc(Cl)c(Nc3ccccc3S(=O)(=O)C(C)C)n2)c(OC(C)C)cc1C1CCNCC1; tested on = Ba/F3 EML4-ALK variant 1 S1206Y; assay = cell viability; measurement = IC50; value = 70.9 nM
Structure (SMILES) = O=c1c(O[C@@H]2O[C@H](CO)[C@@H](O)[C@H](O)[C@H]2O)c(-c2ccc(O)cc2)oc2cc(O)cc(O)c12; tested on = MDA-MB-231 breast cancer; assay = cell viability, MTT; system = DMEM with 10% FBS; setting = 48 h; measurement = IC50; value = > 200000 nM
Structure (SMILES) = CC1(C)CCC2=C(O1)c1ccccc1C(=O)C2=O; tested on = Toxoplasma gondii; assay = parasite growth; system = HFF, bradyzoite, glutamine-induced; measurement = EC50; value = 1190 nM
Structure (SMILES) = CC#Cc1cncc(-c2ccc3c(c2)[C@@]2(N=C(C)C(N)=N2)[C@]2(CC[C@H](OC)CC2)C3)c1; tested on = N2a; assay = Aβ40 production; measurement = IC50; value = 0.29 nM
Structure (SMILES) = CNc1ncc2cc(-c3cc(NC(=O)NCCC(C)(C)C)c(F)cc3C)c(C)nc2n1; tested on = primary keratinocytes; assay = ERK phosphorylation, Western blot; setting = 1 h; measurement = IC50; value = 2140 nM
Structure (SMILES) = CCc1c(-c2ccccc2)c(-c2ccccc2)nn1-c1ccccc1-c1cccc(OCC(=O)O)c1; tested on = mouse bone marrow macrophages; assay = osteoclast formation, TRAP staining; setting = together with: M-CSF and sRANKL; measurement = IC50; value = 892 nM
Structure (SMILES) = CCCCN1C[C@H](O)[C@@H](O)[C@@H](O)[C@H]1CO; tested on = sample BC patient fibroblasts; assay = Gb3 level lowering, LC-MS/MS, item: Gb3 d18:1/20:0; setting = 216 h; measurement = IC50; value = 25500 nM
Structure (SMILES) = CC(C)(C)c1nc(-c2cccc(NS(=O)(=O)c3c(F)cccc3F)c2F)c(-c2ccnc(N)n2)s1; tested on = primary keratinocytes; assay = ERK phosphorylation, Western blot; setting = 1 h; measurement = IC50; value = 21000 nM
Structure (SMILES) = C[C@H]1O[C@@H](n2cc(F)c(=O)[nH]c2=O)[C@H](O)[C@@H]1O; tested on = 7702 normal human cells; assay = cell growth, CCK-8; setting = 48 h; measurement = IC50; value = > 50000 nM
Structure (SMILES) = C=CC(=O)N1CCC[C@@H](n2nc(-c3ccc(Oc4ccccc4)cc3)c3c(N)ncnc32)C1; tested on = washed human platelets, healthy donors; assay = platelet aggregation, inhibitor, light transmission aggregometry; setting = 5 min preincubation, together with: CRP 10 µg/mL; measurement = IC50; value = 1190 nM
Structure (SMILES) = C=CC(=O)Nc1cc(Nc2nccc(-c3cn(C)c4ccccc34)n2)c(OC)cc1N(C)CCN(C)C; tested on = Ba/F3 EGFR V769_D770insASV; assay = cell growth, CellTiter-Glo; setting = 72 h; measurement = IC50; value = 39.4 ± 8.56 nM
Structure (SMILES) = NC(=O)NOCCCCCCCCCCCCCCCC[P+](c1ccccc1)(c1ccccc1)c1ccccc1; tested on = mouse myeloid-derived suppressor cells; assay = suppressive neutrophil differentiation, flow cytometry; measurement = IC50; value = 560 ± 120 nM
Structure (SMILES) = COc1cc2c(Oc3ccc(NC(=O)C4(C(=O)Nc5ccc(F)cc5)CC4)cc3F)ccnc2cc1OCCCN1CCOCC1; tested on = Rh36 (embryonal rhabdomyosarcoma); assay = cell growth; setting = 3 days; measurement = IC50; value = 660 ± 90 nM
Structure (SMILES) = Cc1c(C(=O)O)ccc2c3n(nc12)[C@@H]1[C@H](C3)N(CC2CC2)[C@@]2(C(=O)Nc3cc(Cl)ccc32)[C@H]1c1cccc(Cl)c1F; tested on = highly sensitive cancer cell lines; assay = cell viability, PRISM pooled screen; setting = range, sensitivity above 0.5; measurement = IC50; value = 4.6 to 204 nM
Structure (SMILES) = Clc1ccc(C(c2ccc(Cl)cc2)n2cc[n+](CC(OCc3ccc(Cl)cc3Cl)c3ccc(Cl)cc3Cl)c2)cc1 (centres unmarked); tested on = Toxoplasma gondii; assay = parasite growth, luciferase reporter; system = HFF, tachyzoite; setting = 72 h; measurement = EC90; value = 19200 nM
Structure (SMILES) = CC(C)(N)c1cc(C(=O)N[C@@H]2CCc3ccc(Oc4ccnc5c4CCC(=O)N5)cc3C2)cc(C(F)(F)F)c1; tested on = primary keratinocytes; assay = ERK phosphorylation, inhibitor, Western blot, item: p-ERK/total ERK; setting = 1 h; measurement = IC50; value = 4070 nM
Structure (SMILES) = N#Cc1ccc(C[C@H](Nc2c(Nc3ccc(F)cc3)c(=O)c2=O)C(=O)N2CCc3ccccc32)cc1; tested on = human neutrophils; assay = calcium mobilization, desensitization; setting = together with: standard agonist; measurement = IC50; value = 1300 ± 400 nM
Structure (SMILES) = C=CC(=O)c1cccnc1Nc1cc(C(F)(F)F)ccc1OC; tested on = HEK293A LATS1/2 double knockout; assay = TEAD reporter gene, GTIIC luciferase; setting = 24 h; measurement = IC50; value = 35900 nM
Structure (SMILES) = CC1(C)CCC(CN2CCN(c3ccc(C(=O)NS(=O)(=O)c4ccc(NCC5CCOCC5)c([N+](=O)[O-])c4)c(Oc4cnc5[nH]ccc5c4)c3)CC2)=C(c2ccc(Cl)cc2)C1; tested on = AML blasts, primary, RUNX1-mutated; assay = blast expansion; setting = 7 days, HUVEC co-culture; measurement = IC50; value = 82 nM
Structure (SMILES) = Cc1cccc(-c2nnc(N[C@@H](Cc3ccc(C#N)cc3)C(=O)N3CCc4ccccc43)o2)c1; tested on = human neutrophils; assay = calcium mobilization, desensitization; setting = together with: standard agonist; measurement = IC50; value = > 50000 nM
Structure (SMILES) = COc1cc(O)cc(/C=C/c2cccc(O)c2OC)c1; tested on = T47D breast cancer; assay = cell viability, MTT; system = DMEM with 10% FBS; setting = 48 h; measurement = IC50; value = > 200000 nM
Structure (SMILES) = CN1C(=O)CCC(N2Cc3c(C#CC4CCN(C(=O)[C@H]5CC[C@H](NC(=O)[C@@H]6NC7(CCCCC7)[C@@]7(C(=O)Nc8cc(Cl)ccc87)[C@H]6c6cccc(Cl)c6F)CC5)CC4)cccc3C2=O)C1=O (some centres unmarked); tested on = RS4;11/MIR2; assay = cell growth, WST-8; setting = 4 days; measurement = IC50; value = > 1000 nM
Structure (SMILES) = COc1cc(C(=O)NS(=O)(=O)c2ccccc2C)ccc1Cc1cn(C)c2ccc(NC(=O)OC3CCCC3)cc12; tested on = HCT116 wild-type cells; assay = native VRAC current, inhibitor, whole-cell patch clamp; setting = pH 6.0, at +100 mV; measurement = IC50; value = 5600 nM
Structure (SMILES) = COc1ncnc(C2CC2)c1-c1ncc2cnn(Cc3ccc(-c4nc(C(F)(F)F)cn4C(C)C)cc3)c2n1; tested on = CHP-212 parental; assay = cell viability, SRB; measurement = IC50; value = 39100 nM and 38500 nM and 50200 nM
Structure (SMILES) = C=CC(=O)c1cccnc1Nc1cccc(C(F)(F)F)c1; tested on = HEK293A LATS1/2 double knockout; assay = TEAD reporter gene, GTIIC luciferase; setting = 24 h; measurement = IC50; value = 127000 nM
Structure (SMILES) = N#Cc1ccc(C[C@H](Nc2nnc(-c3ccc(Br)cc3)o2)C(=O)N2CCc3ccccc32)cc1; tested on = human neutrophils; assay = calcium mobilization, desensitization; setting = together with: standard agonist; measurement = IC50; value = 7400 ± 2500 nM
Structure (SMILES) = Cc1nc(N(Cc2ccccc2)c2ccc3c(c2)/C(=C/c2ccccc2)C(=O)N3Cc2ccccc2)c2ccccc2n1 (mixture of isomers); tested on = Lewis lung carcinoma; assay = cell viability, MTT; measurement = IC50; value = 2100 ± 140 nM
Structure (SMILES) = COc1cc2nccc(Oc3ccc(NC(=O)C4(C(=O)Nc5ccc(F)cc5)CC4)cc3)c2cc1OC; tested on = Rh36 (embryonal rhabdomyosarcoma); assay = cell growth; setting = 3 days; measurement = IC50; value = 4620 ± 840 nM
Structure (SMILES) = C[C@H](Nc1ccc2c(c1)OCCn1cc(N3C(=O)OC[C@H]3C(F)F)nc1-2)C(N)=O; tested on = MDA-MB-453; assay = western blot, item: phospho-PKB/Akt Ser473; setting = 2 h; measurement = IC50; value = 4.7 nM
Structure (SMILES) = N#Cc1ccc(C[C@H](NC(=O)c2cc3cc(F)ccc3[nH]2)C(=O)N2CCc3ccccc32)cc1; tested on = human neutrophils; assay = calcium mobilization, desensitization; setting = together with: standard agonist; measurement = IC50; value = 2600 ± 600 nM
Structure (SMILES) = O=c1c(O)c(-c2cc(O)c(O)c(O)c2)oc2cc(O)cc(O)c12; tested on = SV-HUC-1; assay = cell growth, CellTiter-Glo; setting = 72 h; measurement = IC50; value = > 200000 nM
Structure (SMILES) = N#Cc1ccc(C[C@H](Nc2ncc(-c3ccc(F)cc3)o2)C(=O)N2CCc3ccccc32)cc1; tested on = human neutrophils; assay = calcium mobilization, desensitization; setting = together with: standard agonist; measurement = IC50; value = > 50000 nM
Structure (SMILES) = O=C(O)c1ccc(O)cc1; tested on = T47D breast cancer; assay = cell viability, MTT; system = DMEM with 10% FBS; setting = 48 h; measurement = IC50; value = > 200000 nM
Structure (SMILES) = N#Cc1ccc(C[C@@H](Nc2nnc(-c3ccc(F)cc3)o2)C(=O)N2CCc3ccccc32)cc1; tested on = human neutrophils; assay = calcium mobilization, desensitization; setting = together with: standard agonist; measurement = IC50; value = > 50000 nM
Structure (SMILES) = CC1(C)COc2ccc(F)cc2CN2c3nc4c(cnn4cc3OC[C@H]2C(F)F)C(=O)N1; tested on = Ba/F3 EML4-ALK variant 1 S1206Y; assay = cell viability; measurement = IC50; value = 14.4 nM
Structure (SMILES) = N#Cc1ccc(C[C@H](NC(=O)c2cc3ccc(F)cc3[nH]2)C(=O)N2CCc3ccccc32)cc1; tested on = human neutrophils; assay = calcium mobilization, desensitization; setting = together with: standard agonist; measurement = IC50; value = > 50000 nM
Structure (SMILES) = CC(C)C[C@H](NC(=O)[C@H](Cc1ccccc1)NC(=O)c1cnccn1)B(O)O; tested on = CHP-212 parental; assay = cell viability, SRB; setting = mean of 3 runs; measurement = IC50; value = 5260 nM
